Assay results pooled from the literature.
A part holds a random share of what one study measured. Positions count from the first letter of the parent shown.

Block 1
Target: Sal-like protein 4, full length isoform B (SALL4, Homo sapiens, UniProt Q9UJQ4-2, residues 1-616)
Method: universal PBM
Molecule type: double-stranded DNA, one strand shown
Sample: in vitro
Concentration: not given
Setting: 8-mer, flanks averaged, mean of replicates
Reading: higher = stronger binding
Construct (chain): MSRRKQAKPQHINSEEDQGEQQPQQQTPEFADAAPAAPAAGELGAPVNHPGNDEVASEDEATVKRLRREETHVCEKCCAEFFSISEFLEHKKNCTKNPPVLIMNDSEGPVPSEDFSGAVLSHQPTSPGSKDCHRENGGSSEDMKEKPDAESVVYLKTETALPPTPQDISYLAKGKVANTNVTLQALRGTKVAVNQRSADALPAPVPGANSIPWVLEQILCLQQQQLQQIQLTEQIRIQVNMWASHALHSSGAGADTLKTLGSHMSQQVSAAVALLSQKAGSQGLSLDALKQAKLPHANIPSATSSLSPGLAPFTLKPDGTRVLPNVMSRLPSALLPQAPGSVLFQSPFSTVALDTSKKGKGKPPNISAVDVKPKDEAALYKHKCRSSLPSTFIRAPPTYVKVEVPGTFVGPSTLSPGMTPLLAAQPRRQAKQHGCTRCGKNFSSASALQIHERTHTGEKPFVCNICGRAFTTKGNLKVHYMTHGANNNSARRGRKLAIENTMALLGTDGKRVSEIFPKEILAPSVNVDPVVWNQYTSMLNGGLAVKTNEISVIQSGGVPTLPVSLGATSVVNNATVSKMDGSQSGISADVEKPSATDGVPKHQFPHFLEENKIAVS
For `CTAACCTA`, the E-score was -0.02.
`ATCAACCG` gave an E-score of -0.104.
For `GATCAACA`, the E-score was 0.153.
With `ACTATGCA` the E-score was 0.00556.
The E-score of `GCCTGAGA` is reported as -0.248.
The E-score of `GAAGCAGC` is reported as -0.169.
`AGTCGTGG` gave an E-score of -0.0962.
With `GTTTAGCA` the E-score was 0.0302.
The E-score of `CTCGTGGA` is reported as -0.181.
`CTACCAGC` has an E-score of -0.169.
`CGGGATGC` gave an E-score of -0.303.
With `GGCCGGAC` the E-score was -0.339.
`CGCGTGAC` has an E-score of -0.178.
The E-score of `AGCGCACT` is reported as -0.329.
The E-score of `CCCTGTGA` is reported as -0.158.
With `ACGTGGAC` the E-score was -0.15.
The E-score of `AGCATGTC` is reported as -0.0324.
The E-score of `AACATGCT` is reported as 0.0419.

Block 2
Target: Fragile X messenger ribonucleoprotein 1, C-terminal low-complexity region (Fmr1, Mus musculus, UniProt P35922)
Method: RNA Bind-n-Seq
Molecule type: RNA
Sample: in vitro
Concentration: 200 nM
Setting: whole 134-nt RNA, ends assumed
Added: 150 mM LiCl
Reference: input library
Reading: higher = stronger binding
All molecules: 7-deaza-guanosine replaces G
The log2 enrichment of `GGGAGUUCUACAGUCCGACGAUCGCAGGAAGUAAAAACAAAUGGAAAUGCUUCGGAUAGUGGCAGGGGUGGGGGUUGCUAAGGAAAGGGUGGGAUGGGAGUGGGUAAACAGUUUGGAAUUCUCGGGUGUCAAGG` is reported as 1.03.
For `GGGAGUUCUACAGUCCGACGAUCUCCUGUGCUACACAUCGUAUGUACCGAAUCGGGGUUUUUUUGGGGUUUGGGGUUUGGGGAAAGUAUUAUGUUACGCCGUUCGGAUCUGCAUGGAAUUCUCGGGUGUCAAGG`, the log2 enrichment was -0.8.
The log2 enrichment of `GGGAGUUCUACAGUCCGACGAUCCUGUGCUACACAUCGUAUGUACCGAAUCGGGGCCCCCCCGGGCCCCCCCGGCCCCCCCGGGAAAGUAUUAUGUUACGCCGUUCGGAUCUGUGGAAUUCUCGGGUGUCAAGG` is reported as 0.319.
`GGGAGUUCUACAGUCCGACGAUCACCAUGCCGGUGGGCAUCUUUGGGAAGUGGGGCAAGGGGGGGAUAGGGAGGGGGGUAACACUUUGGGAACAGGUGGUCCCAGGUCGUUUCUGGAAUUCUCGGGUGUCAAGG` has a log2 enrichment of 1.11.
For `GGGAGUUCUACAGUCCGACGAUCAGUCCUGUGCUACACAUCGUAUGUACCGAAUCGGCCCCGGGGCCCCGGGGCCCCGGGGAAAGUAUUAUGUUACGCCGUUCGGAUCUGCACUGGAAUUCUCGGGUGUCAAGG`, the log2 enrichment was -0.543.
With `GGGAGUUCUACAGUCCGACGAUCUAACUUUAGAGGAGGAUCUGAUGGAUAUGGCAGUGGACGUGGAUUUGGGGAUGGCUAUAAUGGGCAUGGAGGAGGACCUGGAGGUGGCAAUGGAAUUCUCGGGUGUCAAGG` the log2 enrichment was 0.578.
`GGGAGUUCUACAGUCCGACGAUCAAGUCCUGUGCUACACAUCGUAUGUACCGAAUCGGGUUUUGGGGUUUUGGUUUUGGAAAGUAUUAUGUUACGCCGUUCGGAUCUGCACUUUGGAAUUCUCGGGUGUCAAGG` has a log2 enrichment of -1.9.
For `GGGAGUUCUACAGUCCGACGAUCCACAGACAACACGCACCCACACAAAAACAGAGGGAAGGGGUUGGGAUGGGGACAGGGUGCACAGCAGGGCGGGGUAGGACCCCAGCCCCUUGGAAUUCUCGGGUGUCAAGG`, the log2 enrichment was -0.0726.

Block 3
Target: ABI1, truncated, D143A, DHFR fusion (Arabidopsis thaliana)
Method: DHFR PCA, deep sequencing
Sample: yeast
Setting: methotrexate growth selection, single substitutions
Added: (+)-ABA 2500 µM
Reference: wild-type fitted maximum
Reading: higher = stronger binding
Starting sequence: PYL1, truncated, DHFR fusion (Arabidopsis thaliana); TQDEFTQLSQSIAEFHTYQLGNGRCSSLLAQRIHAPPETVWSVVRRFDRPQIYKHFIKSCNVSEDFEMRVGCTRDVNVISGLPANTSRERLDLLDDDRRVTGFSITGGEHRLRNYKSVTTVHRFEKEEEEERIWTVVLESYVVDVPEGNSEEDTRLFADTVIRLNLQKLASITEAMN; partner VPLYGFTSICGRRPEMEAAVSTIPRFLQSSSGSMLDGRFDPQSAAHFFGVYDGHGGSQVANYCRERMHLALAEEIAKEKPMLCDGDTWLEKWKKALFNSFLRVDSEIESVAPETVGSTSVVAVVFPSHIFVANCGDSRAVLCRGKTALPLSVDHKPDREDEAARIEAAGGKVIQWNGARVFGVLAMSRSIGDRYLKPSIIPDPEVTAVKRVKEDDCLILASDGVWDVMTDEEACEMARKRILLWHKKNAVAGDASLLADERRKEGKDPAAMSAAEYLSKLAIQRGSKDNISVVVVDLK
Under “relative binding score”, `L138M` is recorded as 104%.
`E128G`: “relative binding score” 107%.
For `W134Y`, “relative binding score” read 109%.
For `N61S`, “relative binding score” read 96.7%.
Under “relative binding score”, `S9E` is recorded as 101%.
`A30K`: “relative binding score” 102%.
Under “relative binding score”, `H34D` is recorded as 94.6%.
`N114R` — result for “relative binding score”: 101%.
`Y115S` — result for “relative binding score”: -6.43%.
For `T17E`, “relative binding score” read 102%.
`L156F` — result for “relative binding score”: 91.8%.
`S63F` — result for “relative binding score”: 86.5%.
`L169F` — result for “relative binding score”: 9.05%.
Under “relative binding score”, `E125W` is recorded as 96.8%.

Further values, each from its own experiment
For `PhoQ, residues 284 288 289 292 302 303 TNASYF`, the fold induction was 4.92 (PhoP, residues 12 14 15 18 19 NNFVT (Escherichia coli, UniProt P23836); Sort-seq, refers to: YFP reporter; E. coli; PhoQ-PhoP variant library, added: 10 µM Mg2+; reference: high Mg2+ state, higher = stronger signaling).

Some of these lines once more (block 2):
`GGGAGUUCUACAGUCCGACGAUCACCAUGCCGGUGGGCAUCUUUGGGAAGUGGGGCAAGGGGGGGAUAGGGAGGGGGGUAACACUUUGGGAACAGGUGGUCCCAGGUCGUUUCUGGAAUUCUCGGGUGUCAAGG` has a log2 enrichment of 1.11.
For `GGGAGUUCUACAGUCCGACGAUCAGUCCUGUGCUACACAUCGUAUGUACCGAAUCGGCCCCGGGGCCCCGGGGCCCCGGGGAAAGUAUUAUGUUACGCCGUUCGGAUCUGCACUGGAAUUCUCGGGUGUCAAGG`, the log2 enrichment was -0.543.
With `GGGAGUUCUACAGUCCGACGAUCUAACUUUAGAGGAGGAUCUGAUGGAUAUGGCAGUGGACGUGGAUUUGGGGAUGGCUAUAAUGGGCAUGGAGGAGGACCUGGAGGUGGCAAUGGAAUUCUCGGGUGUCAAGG` the log2 enrichment was 0.578.
`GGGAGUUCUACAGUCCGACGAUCAAGUCCUGUGCUACACAUCGUAUGUACCGAAUCGGGUUUUGGGGUUUUGGUUUUGGAAAGUAUUAUGUUACGCCGUUCGGAUCUGCACUUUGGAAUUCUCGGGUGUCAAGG` has a log2 enrichment of -1.9.
